Published values from different studies.
Each numbered part is a random draw from the data of one study; scales do not carry over between parts.

Series 1 — method: protein-binding microarray; molecule type: double-stranded DNA, one strand shown; matrix: in vitro; concentration: not given; reading: higher = stronger binding
Target: Protein C-ets-1 (ETS1, Homo sapiens, UniProt P14921, residues 1-441, Y397A, full length assumed)
Sequence of UniProt P14921 (whole entry, unmodified, looked up): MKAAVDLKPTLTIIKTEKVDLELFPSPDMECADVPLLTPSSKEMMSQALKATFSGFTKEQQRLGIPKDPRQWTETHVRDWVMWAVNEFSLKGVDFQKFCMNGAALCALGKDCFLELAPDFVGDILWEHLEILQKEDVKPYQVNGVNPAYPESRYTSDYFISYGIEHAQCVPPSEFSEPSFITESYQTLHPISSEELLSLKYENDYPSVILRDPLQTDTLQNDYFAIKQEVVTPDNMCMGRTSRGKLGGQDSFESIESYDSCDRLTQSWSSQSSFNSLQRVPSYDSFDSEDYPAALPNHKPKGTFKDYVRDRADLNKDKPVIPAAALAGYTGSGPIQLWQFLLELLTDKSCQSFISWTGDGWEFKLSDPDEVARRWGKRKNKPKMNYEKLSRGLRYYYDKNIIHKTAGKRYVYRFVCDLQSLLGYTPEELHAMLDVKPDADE
Notes: k-mer, scored over probes, only values ≥0.25
Sequence	E-score
CACATTGC	0.256
TAGTGACA	0.292
GACAAATC	0.288
CCCGCCCG	0.254
ATTACAAC	0.275

Series 2 — method: protein binding microarray; molecule type: double-stranded DNA, one strand shown; matrix: in vitro; concentration: not given; reference: not given; reading: higher = stronger binding
Target: Histone acetyltransferase KAT6A, winged helix 2, GST fusion (KAT6A, Homo sapiens, UniProt Q92794, residues 85-181)
Notes: 8-mer, flanks averaged, mean of 2 arrays, mostly near background
Target sequence (chain): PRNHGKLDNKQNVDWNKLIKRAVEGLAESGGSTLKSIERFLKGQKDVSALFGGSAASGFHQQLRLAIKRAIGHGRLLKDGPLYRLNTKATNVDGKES
Sequence	E-score
ACCCATTC	0.0285
CTCTGTAA	0.0548
GCTATAGA	-0.143
CCAAGCAA	-0.0122
ATTTAATC	0.105
GCTCGTAC	-0.0719
GCGCGGCA	0.265
GGGGGTCA	-0.0322

Other studies, line by line
G3BP1 full length: Ras GTPase-activating protein-binding protein 1, full length (G3BP1, Homo sapiens, UniProt Q13283)
Sequence of UniProt Q13283 (whole entry, looked up): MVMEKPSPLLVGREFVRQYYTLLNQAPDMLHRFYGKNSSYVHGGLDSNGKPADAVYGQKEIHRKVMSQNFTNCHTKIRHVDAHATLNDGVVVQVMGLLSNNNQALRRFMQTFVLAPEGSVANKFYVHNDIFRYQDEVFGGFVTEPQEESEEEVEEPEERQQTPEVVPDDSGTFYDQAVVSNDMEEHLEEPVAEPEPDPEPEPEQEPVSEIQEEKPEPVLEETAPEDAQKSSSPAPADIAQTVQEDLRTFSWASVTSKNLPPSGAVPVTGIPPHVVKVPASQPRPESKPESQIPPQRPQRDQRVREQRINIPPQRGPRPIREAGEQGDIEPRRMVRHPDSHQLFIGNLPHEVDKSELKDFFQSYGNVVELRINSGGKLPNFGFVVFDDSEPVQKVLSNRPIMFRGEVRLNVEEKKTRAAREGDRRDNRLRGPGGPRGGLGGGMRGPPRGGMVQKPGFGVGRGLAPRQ
Molecule	target	test	test system	conditions	scale	endpoint	value
GGGAGUUCUACAGUCCGACGAUCUAACUUUAGAGGAGGAUCUGAUGGAUAUGGCAGUGGACGUGGAUUUGGGGAUGGCUAUAAUGGGUAUGGAGGAGGACCUGGACGUGGCAAUGGAAUUCUCGGGUGUCAAGG	G3BP1 full length	RNA Bind-n-Seq	RNA, in vitro	200 nM, whole 134-nt RNA, ends assumed, together with: 150 mM KCl	reference: input library, higher = stronger binding	log2 enrichment	0.118
PhoQ, residues 284 288 289 292 302 303 ASSHFY	PhoP, residues 12 14 15 18 19 QYCSL (Escherichia coli, UniProt P23836)	Sort-seq, item: YFP reporter	E. coli	PhoQ-PhoP variant library, together with: 10 µM Mg2+	reference: high Mg2+ state, higher = stronger signaling	fold induction	7.08
GGGAGUUCUACAGUCCGACGAUCCCUGUGCUACACAUCGUAUGUACCGAAUCGGUUUUUUUGGGGUUUUUUUGGUUUUUUUGGGAAAGUAUUAUGUUACGCCGUUCGGAUCUGUGGAAUUCUCGGGUGUCAAGG	G3BP1 full length	RNA Bind-n-Seq	RNA, in vitro	200 nM, whole 134-nt RNA, ends assumed, together with: 150 mM KCl	reference: input library, higher = stronger binding	log2 enrichment	-0.987

Some of these lines once more (series 2):
Sequence	E-score
CCAAGCAA	-0.0122
